Assay results of several laboratories.
Numbered parts are unrelated; each lists some results of a single study. Positions count from the first letter of the parent shown.

Sample 1
Target: CCNB2, cyclin fold, Cln2 fusion (human)
Method: yeast growth competition, sequencing
Medium: yeast
Notes: weak parent motif
Relative to: not given
Reading: higher = stronger binding
Starting sequence: E2F1 docking peptide (human); PPVKRRLDLETDH; partner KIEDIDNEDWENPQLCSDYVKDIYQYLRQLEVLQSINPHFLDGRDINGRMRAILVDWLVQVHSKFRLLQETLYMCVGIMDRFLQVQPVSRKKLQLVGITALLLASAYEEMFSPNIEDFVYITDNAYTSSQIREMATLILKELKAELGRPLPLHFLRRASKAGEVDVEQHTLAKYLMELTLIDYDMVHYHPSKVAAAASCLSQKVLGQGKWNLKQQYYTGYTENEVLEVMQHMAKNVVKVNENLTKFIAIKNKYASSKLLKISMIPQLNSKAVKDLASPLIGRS
| Change | normalised enrichment score |
| --- | --- |
| PPVKRRLDLMTDH [E10M] | 0.349 |
| PPVKRRLILETDH [D8I] | 0.616 |
| GPVKRRLDLETDH [P1G] | 0.352 |
| PPVKRFLDLETDH [R6F] | 0.333 |
| PPVVRRLDLETDH [K4V] | 0.419 |
| PPVKRRLSLETDH [D8S] | 0.424 |
| PPVKRRLDLETDK [H13K] | 0.851 |
| YPVKRRLDLETDH [P1Y] | 1.18 |

Sample 2
Target: RING finger protein unkempt homolog, zinc fingers 1-6, GST-SBP tag (UNK, Homo sapiens, UniProt Q9C0B0, residues 30-357)
Chain of UniProt Q9C0B0 (30-357, looked up): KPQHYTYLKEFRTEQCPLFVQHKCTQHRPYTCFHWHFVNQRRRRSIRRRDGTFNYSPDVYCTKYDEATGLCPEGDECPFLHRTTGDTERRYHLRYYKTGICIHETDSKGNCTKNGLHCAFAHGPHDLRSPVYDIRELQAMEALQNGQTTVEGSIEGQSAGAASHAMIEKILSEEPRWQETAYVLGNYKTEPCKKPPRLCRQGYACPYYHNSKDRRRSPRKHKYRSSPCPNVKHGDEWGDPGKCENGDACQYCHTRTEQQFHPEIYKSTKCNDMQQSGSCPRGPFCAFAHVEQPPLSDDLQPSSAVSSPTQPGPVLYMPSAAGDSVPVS
Method: RNA Bind-n-Seq
Form: RNA
Medium: in vitro
Concentration: not given
Notes: RNA with constant flanks, human and mouse sites, ends assumed
Relative to: input RNA pool
Reading: higher = stronger binding
| Strand | bound/input enrichment [ratio] |
| --- | --- |
| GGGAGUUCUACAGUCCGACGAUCCCCCUCAUUUGACCUUUCACCUCUGUCUGUUGGAAGCAGUACUUUUUACUGCCUCAUUGUCUUCUGUACAUCUUACUGGGUUUAAUUAAAAAAAAAGAAAAAACUCUGUUGUAAAAACAGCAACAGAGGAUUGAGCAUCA | 0.501 |
| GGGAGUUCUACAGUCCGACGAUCUUGAAAUCUGGAAUGUCUCCUGAGCAGAGCAGGUUCCAGUCUGACUCUUCUUCAUAUCCUACAGUGGACUCGAAUUCUCUCUUGGGGCAGAGUAGAUUGGAGACUGCUGAAUCAAAAGAGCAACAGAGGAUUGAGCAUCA | 0.22 |
| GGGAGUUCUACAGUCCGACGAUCCUCCAAGAAGAUACUCUAUCCGAUGUUGCUCCUCCCAGAGAUAUGUCCUUAUAUGCCUCACUCACCUCUGAAAAAGUGCAAAGUCUGGAAGGAGAGAAGCUCUCUCCAAAAUCUGAUAUCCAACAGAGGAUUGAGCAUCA | 0.436 |
| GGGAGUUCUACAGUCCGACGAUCGAAGGUUUCUUUACCAACGGUUUGACUCUUGGCGCGAAGAAAUGCUCAGUGAUCAGAGAUAGUCUAUACGUCGAUGGUGACUGCACAAUGGACAUCCGGACAAAGAGUCAAGGUGGGGAGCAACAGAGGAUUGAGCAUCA | 0.172 |
| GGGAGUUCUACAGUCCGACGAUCGACAGCAGUAGGGAAAUUAGGUGCAGAAUGUUAAGUUCAACCACGGGGCUUUCACCAGGUUAGGUUGUCAAACUCCCCAACAUUGGCAGCUACUGUUUGGGUGGACCCCACACUUGCCUGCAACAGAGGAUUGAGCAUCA | 0.527 |
| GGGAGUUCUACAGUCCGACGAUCGCCUUGGGGACCCCUCCCCAGCUCUGGGCAGGGCCUGGGGAUCCCACAUUCCAUGCCCAGGCUUGGGGGAGGGGGACCCAGACUUGUUGUACAUAUUUUGCAUACUGUCUGAUUAAACACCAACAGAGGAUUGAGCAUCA | 0.119 |
| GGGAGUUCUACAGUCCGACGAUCGACGUUGAGAGGAUUGUUUAUUUGAUUUUUAUCCUCAUCCCAGCAGGCCUGGCUUUGUGGUUAGUUGGGUACAUCACAAAAAUAAGUUAAAAAGAAAUAUUUGUGCCUUGGGGAGAAGAACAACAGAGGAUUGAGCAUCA | 0.571 |
| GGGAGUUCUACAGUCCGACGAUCCGGGUCGGAGAUUAUGUCUACUUUGAGAAUUCCUCCAGCAACCCAUACCUAAUAAGAAGGAUAGAAGAACUCAACAAGACUGCAAGUGGCAACGUGGAAGCAAAAGUAGUAUGCUUUUAUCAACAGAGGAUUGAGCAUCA | 0.822 |

Sample 3
Target: Phosphate system positive regulatory protein PHO4, full length, GST-tagged (PHO4, Saccharomyces cerevisiae, UniProt P07270, residues 1-312)
Method: competition protein-binding microarray
Form: double-stranded DNA, one strand shown
Medium: in vitro
Concentration: 2 µM
Notes: whole 60-bp probe, lowest competitor level
With: Cbf1 competitor, 0.05 µM
Reading: higher = stronger binding
Construct (chain): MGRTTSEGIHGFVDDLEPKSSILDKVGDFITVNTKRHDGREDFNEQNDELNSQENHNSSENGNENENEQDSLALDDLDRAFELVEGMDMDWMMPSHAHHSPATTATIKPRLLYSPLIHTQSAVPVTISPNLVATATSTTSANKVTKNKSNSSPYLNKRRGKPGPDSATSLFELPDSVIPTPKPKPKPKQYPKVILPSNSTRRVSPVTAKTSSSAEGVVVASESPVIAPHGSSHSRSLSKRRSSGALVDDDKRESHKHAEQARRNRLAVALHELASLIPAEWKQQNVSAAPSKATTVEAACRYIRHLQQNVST
| Strand | fluorescence intensity |
| --- | --- |
| TTTAATGGTCCAAAGCATGTGCTAAACTGCCACAGAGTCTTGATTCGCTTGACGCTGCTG | 10000 a.u. |
| AGCAGGAATCATACCCACGCATCTCATTTTGCGTTAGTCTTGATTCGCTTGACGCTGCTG | 8410 a.u. |
| CGGGGTTAAGTTTGATGCGTGGGTGGCTTGCAGCAGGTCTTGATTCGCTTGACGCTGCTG | 8550 a.u. |
| ATTCTTGGTACTTTAGTCGTGATTGTTTGACATGTCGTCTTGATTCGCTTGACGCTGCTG | 4870 a.u. |
| AGGTTGATGAAGAAGGACGTGCTTTCCCAGTTGAGTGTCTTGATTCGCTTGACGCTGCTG | 8350 a.u. |
| AAATTACTAAGTTGTCACGTGACTTACCCCGTATGAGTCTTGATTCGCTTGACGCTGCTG | 11700 a.u. |
| AAATTACTAAGTTGGTGCGTGGGTGACGCCGTATGAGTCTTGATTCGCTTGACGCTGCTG | 8230 a.u. |
| CGTCCTAGTGATTTTCACGTGGGATCCATGAGGAAGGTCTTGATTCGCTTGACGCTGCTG | 16900 a.u. |
| ATATGTGTGCGGTTCCACGGGCAGTCGTTTATGTTGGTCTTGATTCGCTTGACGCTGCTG | 8190 a.u. |
| TGTCGTCTCGGTTTTCACGTTGCTAATCGAACGATCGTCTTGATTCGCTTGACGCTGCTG | 7640 a.u. |
| TTCTTCTCCACCTTCCTCGTGATGGTCAGAGCCATCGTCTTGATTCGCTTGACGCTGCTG | 8540 a.u. |
| ATGGCACTCATTGATGGCGTGATGGAGCAGAACCTCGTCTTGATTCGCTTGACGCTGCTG | 5510 a.u. |

Other studies, line by line
| Substance | target | assay | test system | conditions | scale | endpoint | value |
| --- | --- | --- | --- | --- | --- | --- | --- |
| PhoQ, residues 284 288 289 292 302 303 SVTLVV | PhoP, residues 12 14 15 18 19 TPLRH (Escherichia coli, UniProt P23836) | Sort-seq, item: YFP reporter | E. coli | PhoQ-PhoP variant library, with: 10 µM Mg2+ | relative to: high Mg2+ state, higher = stronger signaling | fold induction | 0.881 |

For quick reference, copied from above (sample 3):
| Strand | fluorescence intensity |
| --- | --- |
| AGGTTGATGAAGAAGGACGTGCTTTCCCAGTTGAGTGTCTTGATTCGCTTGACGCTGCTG | 8350 a.u. |
| AAATTACTAAGTTGTCACGTGACTTACCCCGTATGAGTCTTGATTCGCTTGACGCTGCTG | 11700 a.u. |
| AAATTACTAAGTTGGTGCGTGGGTGACGCCGTATGAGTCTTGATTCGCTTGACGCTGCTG | 8230 a.u. |
| CGTCCTAGTGATTTTCACGTGGGATCCATGAGGAAGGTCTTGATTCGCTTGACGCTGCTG | 16900 a.u. |
